Published values from different studies.
Lines come from different studies, so protocols differ. “And” joins repeats or separate records; there may be more than shown. Numbers after ± are the reported error.
GUK1: GUK1 (Homo sapiens, UniProt Q16774)
UCHL1: Ubiquitin carboxyl-terminal hydrolase isozyme L1 (UCHL1, Homo sapiens, UniProt P09936)
Voltage-dependent P/Q-type calcium channel subunit alpha-1A: Voltage-dependent P/Q-type calcium channel subunit alpha-1A (Homo sapiens, UniProt O00555)
T1: RNA aptamer U10C/A45G, 5'-triphosphate, 2',3'-cyclic phosphate; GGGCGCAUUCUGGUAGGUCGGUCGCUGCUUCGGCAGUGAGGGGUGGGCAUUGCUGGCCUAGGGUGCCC
T2: G-quadruplex DNA (Homo sapiens); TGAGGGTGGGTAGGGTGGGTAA

The Kd of `Nc1nc2c(ncn2[C@@H]2O[C@H](COP(=O)(O)OP(=O)(O)OP(=O)(O)O)[C@@H](O)[C@H]2O)c(=O)[nH]1` is reported as 361 nM (T1, RNA aptamer U10C/A45G, 5'-triphosphate, 2',3'-cyclic phosphate; ITC).
`Oc1ccccc1-c1n[nH]cc1-c1ccnc2ccccc12`: “log2 fold change” 0.08 (Serine/threonine-protein kinase HSL1 (HSL1, Candida albicans, UniProt Q5AG71); kinase binding, MIB/MS competition; Candida albicans lysate; 10 µM; baseline: DMSO, negative = stronger binding).
`C=CC(=O)N1CCC(COCC(=O)N2CCN(c3nc(-c4cnc(N)nc4C(F)F)nc(N4CCOC[C@@H]4C)n3)CC2)CC1` gave a remaining binding of 4.5% (PIK3CA (Homo sapiens, UniProt P42336, Q546K); KINOMEscan; 1 µM).
For `CCCCC[C@H](O)/C=C/[C@H]1CCC(=O)[C@@H]1C/C=C\CCCC(=O)O`, the span was 99.9 ± 2.5% (PTGER1 (Homo sapiens, UniProt P34995); IP1 accumulation, agonist; AD293; baseline: wild type).
For `N[C@@H](CCC(=O)O)C(=O)O`, the median current was 1 µA (glc-2 (Caenorhabditis elegans, UniProt Q17328, R351A/R352A/R353A/T283S); two-electrode voltage clamp; Xenopus laevis oocytes).
`CCCCCCCCCCCCNC(=S)NCCCC[C@H](NS(C)(=O)=O)C(=O)N[C@@H](C)C(=O)N[C@@H](CCCNC(=N)N)C(N)=O` gave a k2 of 0.1 ± 0.01 min⁻¹ (SIRT2 (Homo sapiens, UniProt Q8IXJ6); enzyme activity, slow-binding inhibitor; slow binding mechanism B, with: myristoylated peptide substrate).
For `CCn1ncc2c1-c1cnc(N)c(c1)O[C@H](C)c1cc(F)ccc1-c1nn(C)nc1C2`, “brain bioluminescence signal” read at most 4% (CD74-ROS1 (CD74/ROS1, Homo sapiens, UniProt P04233+P08922, G2032R); tumour growth; Balb/c nude mice, intracranial CD74-ROS1 xenograft; 3 mg/kg twice daily, day 24; baseline: initial).
For `COc1cccc2c1C(=O)c1c(O)c3c(c(O)c1C2=O)C[C@@](O)(C(=O)CO)C[C@@H]3O[C@H]1C[C@H](N)[C@H](O)[C@H](C)O1`, “geometric mean inhibition” read 77.9% (DNA topoisomerase I (calf thymus); enzyme activity, inhibitor; Caco-2; 50, 100, 500 ppm, 30 min, 37 °C).
`Cc1cn(C2CCN(Cc3cccc(Oc4cccc(Cl)c4)n3)CC2)c(=O)[nH]c1=O`: “highest concentration tested” over 40 µM (Thymidylate kinase (DTYMK, Homo sapiens, UniProt P23919); enzyme activity, inhibitor; no inhibition observed).
`CN1CCN(c2cc(-c3ccncc3)c(-c3ccc4ccccc4c3)nn2)CC1` gave an activation of 4.2% (LHCGR (Homo sapiens, UniProt P22888); agonist, FLIPR; 12.5 µM).
The ligand efficiency of `CNC(=O)[C@H](CNC(=O)CCn1c(=O)[nH]c(=O)c2ccccc21)NC(=O)c1cnc2ccccc2c1` is reported as 0.46 (TNKS (Homo sapiens, UniProt O95271); enzyme activity, inhibitor).
`CC(C)OCc1ccccc1NS(=O)(=O)c1cccc(Cl)c1O` has a remaining activity of 83% (malate dehydrogenase; enzyme activity, inhibitor; 200 µM, pH 7.0, 1% DMSO, aggregation counter-screen).
`Cc1cc(-c2ccnc3[nH]cc(F)c23)cc(F)c1[C@@]1(O)[C@H](C)CN(C2CCS(=O)(=O)CC2)C[C@@H]1C` gave an inhibition of 56.5% (LATS1 (Homo sapiens, UniProt O95835); ATP probe binding, KiNativ, refers to: Lys2 site; HEK293T cell lysate; 1 µM).
The kcat of `N[C@@H]1C[C@]1(F)c1ccc(C(F)(F)F)cc1` (relative stereo) is reported as 0.11 ± 0.02 s⁻¹ (tyramine oxidase (Arthrobacter sp.); substrate, Lineweaver-Burk plot).
`Nc1ncnc2c1ncn2[C@@H]1O[C@H](COP(=O)(O)OP(=O)(O)O)[C@@H](O)[C@H]1O` has a ΔH of -0.111 kcal/mol (GUK1; binding, isothermal titration calorimetry; molar ratio 3.506, fitted curve).
`COc1nc(Cl)nc(N2CCCCC2)n1` gave a labelling of 4.23% (UCHL1; covalent, intact protein LC-MS; 12.5 µM).
`CCC(NC(=O)CCc1c(C)c2cc(Cl)c(O)cc2oc1=O)C(=O)O` (centres unmarked) has a luminescence of 63800 a.u. (B4GALT1 (Homo sapiens, UniProt P15291); enzyme activity, inhibitor, UDP-Glo; 100 µM; lower means stronger inhibition).
`CN(C)CCCNc1nc(-c2cccc(-c3nc(NCCCN(C)C)c4ccccc4n3)n2)nc2ccccc12`: binding “binds” (T2, G-quadruplex DNA (Homo sapiens); 1H NMR titration; pH 7.4, 298 K, KCl 35 mM).
`CNCC[C@@H](Oc1ccccc1C)c1ccccc1` has an IC30 of 3.94 µM (Voltage-dependent P/Q-type calcium channel subunit alpha-1A; ion current, antagonist, automated patch clamp).
`Cc1nc(CSc2nc(SCc3ccc(C(C)C)cc3)nc(=O)[nH]2)cs1`: “STD amplification factor” 1.57 (DNA topoisomerase 2-alpha, ATPase domain (TOP2A, Homo sapiens, UniProt P11388); 1H STD NMR, refers to: H1' and H5' protons; protein to ligand ratio 100).
`O=S(=O)(Nc1ccc(F)c2cnccc12)c1cc(Cl)cc(Cl)c1O` gave a remaining activity of 88% (malate dehydrogenase; enzyme activity, inhibitor; 200 µM, pH 7.0, 1% DMSO, aggregation counter-screen).
With `O=C(O)c1ccc(O)cc1` the current density was -17.1 pA/pF and -15.5 pA/pF and -9.82 pA/pF and -11.6 pA/pF and -13.4 pA/pF and -16.8 pA/pF and -8.07 pA/pF (BEST1 (Homo sapiens, UniProt O76090); whole-cell patch clamp; HEK293 transiently expressing channel; concentration not given, membrane potential -40 mV).
`CCCCCCCCC(=O)c1cc(O)c(O)c(O)c1` has an activation of 2.56 fold (Nuclear receptor subfamily 1 group I member 3 (Homo sapiens, UniProt Q14994); reporter gene, Gal4 hybrid reporter; 10 µM; baseline: vehicle).
For `CN1C(N)=N[C@](C)(c2cc(NC(=O)c3ccc(F)cn3)ccc2F)CS1(=O)=O`, the inhibition was 80% (Voltage-dependent P/Q-type calcium channel subunit alpha-1A; ion current, antagonist; 30 µM).
For `Nc1ncnc2c1ncn2[C@@H]1O[C@H](COP(=O)(O)OP(=O)(O)OP(=O)(O)O)[C@@H](O)[C@H]1O`, the peak current was 6310 nA (P2X purinoceptor 1 (P2RX1, Homo sapiens, UniProt P51575); ion current, agonist, two-electrode voltage clamp; Xenopus oocytes; 100 or 300 µM, first maximal application).
For `O=C(O)C(O)C(O)C(=O)O.c1cnc2cc3c(cc2n1)[C@@H]1CNC[C@H]3C1`, the IC30 was over 30 µM (Voltage-dependent P/Q-type calcium channel subunit alpha-1A; ion current, antagonist, automated patch clamp).
With `[Cl-].[Na+]` the reaction velocity was 0.0301 µM/s and 0.0186 µM/s and 0.0202 µM/s (GUK1; enzyme activity, NADH-coupled; 30 mM).
`Cc1ccc2c(c1)sc(-c1ccc(N(C)C)cc1)[n+]2C.[I-]` gave an inhibition of 40.1% (Trypanosoma cruzi; reporter translation, Renilla luciferase mRNA translation; cell-free extract; 40 µM; baseline: DMSO).
`C=CCNc1oc(-c2ccc(S(=O)(=O)N3CCC(C)CC3)cc2)nc1C#N` has a labelling of 14% (UCHL1; covalent, intact protein LC-MS; 12.5 µM).
`CN(C)CCC=C1c2ccccc2C=Cc2ccccc21` has an inhibition of 65% (Voltage-dependent P/Q-type calcium channel subunit alpha-1A; ion current, antagonist; HEK293; 10 µM).
`COc1cc(Nc2ncc3c(n2)-c2ccc(Cl)cc2C(c2c(F)cccc2OC)=NC3)ccc1C(=O)O` has a remaining activity of 105% (IKBKB; kinase activity; 1 µM).
`CC/C=C(\C)C=O` gave a conversion of 37% (Uncharacterized protein PH0856 (Pyrococcus horikoshii, UniProt O58586); substrate; pH 7, 40 °C, anaerobic, shaking 300 rpm, with: NADPH).
The labelling of `O=C(CCl)c1c(-c2ccc(F)cc2)[nH]c2ccccc12` is reported as 9.38% (UCHL1; covalent, intact protein LC-MS; 12.5 µM).
With `O=C(C1=C(O)C(=O)N(c2ccccc2O)C1c1ccc([N+](=O)[O-])cc1)c1ccccc1` (centres unmarked) the EC1.2 was 75 µM (ESR1/YWHAZ, with 14-3-3 zeta (Homo sapiens, UniProt P03372+P63104); 14-3-3ζ/ERα peptide binding, stabiliser, fluorescence polarization).
The remaining activity of `CC1(c2cc(F)ccc2F)CC1NC(=O)NCC1(C(=O)O)CCCC1` (centres unmarked) is reported as 81% (malate dehydrogenase; enzyme activity, inhibitor; 200 µM, pH 7.0, 1% DMSO, aggregation counter-screen).
`CN(C)CCOC1=Cc2ccccc2Sc2ccc(Cl)cc21` has an inhibition of 89% (Voltage-dependent P/Q-type calcium channel subunit alpha-1A; ion current, antagonist; HEK293; 10 µM).
`CC(=NNc1nc(Cl)c(C#N)c(Cl)c1Cl)c1ccccc1` has a labelling of 3.23% (UCHL1; covalent, intact protein LC-MS; 12.5 µM).
Under “normalised MST signal”, `O=S(=O)(O)C1CCNCC1` is recorded as -0.00657 (SLC6A6 (Homo sapiens, UniProt P31641, G62A); binding, microscale thermophoresis; 30.5 nM, room temperature, with: 50 nM labelled protein; higher = more binding).
`N#CC(=Cc1cccc(O)c1)C(=O)NCCc1ccccc1` has a labelling of 15.5% (UCHL1; covalent, intact protein LC-MS; 12.5 µM).
For `Nc1ncnc2c1ncn2[C@@H]1O[C@H](COP(=O)(O)CP(=O)(O)OP(=O)(O)O)[C@@H](O)[C@H]1O`, the calcium influx was 94.7% and 98.7% and 95.9% (P2X purinoceptor 1 (P2RX1, Homo sapiens, UniProt P51575, R139P); calcium influx; 3.16 µM; baseline: ionomycin response).
`Cc1cc(Oc2ncccc2CN2CCN(c3ccccc3C#N)CC2)ccc1-c1c(C)c(=O)[nH]c(=O)n1C` gave a selectivity ratio of 2 (ADRA2C (Homo sapiens, UniProt P18825); binding, radioligand binding; with: [3H]rauwolscine; baseline: Ki alpha2A over Ki alpha2C).
`O=C(CCl)Nc1cc(C2CCCC2)nn1-c1ccccc1` has a labelling of 19.3% (UCHL1; covalent, intact protein LC-MS; 12.5 µM).
`O=c1nc(SCc2cc(F)cc(C(F)(F)F)c2)nc(SCc2ccc3sccc3c2)[nH]1` gave a decatenated DNA of 0.76% (TOP2B (Homo sapiens, UniProt Q02880); decatenation; 15.6 µM, replicate 1).
`CCc1sc(C(=O)NC2CCN(C)CC2)cc1Br` has an inhibition of -1.3% (Trypanosoma cruzi; reporter translation, Renilla luciferase mRNA translation; cell-free extract; 40 µM; baseline: DMSO).

A few entries again:
`CC/C=C(\C)C=O` gave a conversion of 37% (Uncharacterized protein PH0856 (Pyrococcus horikoshii, UniProt O58586); substrate; pH 7, 40 °C, anaerobic, shaking 300 rpm, with: NADPH).
The labelling of `O=C(CCl)c1c(-c2ccc(F)cc2)[nH]c2ccccc12` is reported as 9.38% (UCHL1; covalent, intact protein LC-MS; 12.5 µM).
With `O=C(C1=C(O)C(=O)N(c2ccccc2O)C1c1ccc([N+](=O)[O-])cc1)c1ccccc1` (centres unmarked) the EC1.2 was 75 µM (ESR1/YWHAZ, with 14-3-3 zeta (Homo sapiens, UniProt P03372+P63104); 14-3-3ζ/ERα peptide binding, stabiliser, fluorescence polarization).
The remaining activity of `CC1(c2cc(F)ccc2F)CC1NC(=O)NCC1(C(=O)O)CCCC1` (centres unmarked) is reported as 81% (malate dehydrogenase; enzyme activity, inhibitor; 200 µM, pH 7.0, 1% DMSO, aggregation counter-screen).
`CN(C)CCOC1=Cc2ccccc2Sc2ccc(Cl)cc21` has an inhibition of 89% (Voltage-dependent P/Q-type calcium channel subunit alpha-1A; ion current, antagonist; HEK293; 10 µM).
